Experimental data from different studies.
Each numbered part is a random draw from the data of one study; scales do not carry over between parts.

Block 1 — method: RNA Bind-n-Seq; molecule type: RNA; medium: in vitro; tested at: 365 nM; reference: no-protein control; direction: higher = stronger binding
Target: RNA binding protein fox-1 homolog 2, RRM domain, GST-SBP tag (RBFOX2, Homo sapiens, UniProt O43251-10, residues 100-194)
Notes: natural RNA segment, single round, ends assumed
All sequences stand within: GGGAGUUCUACAGUCCGACGAUC … UGGAAUUCUCGGGUGCCAA
Construct (chain): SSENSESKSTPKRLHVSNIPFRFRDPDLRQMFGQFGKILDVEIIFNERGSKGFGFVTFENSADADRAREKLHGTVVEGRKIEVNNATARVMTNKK
Oligonucleotide	RBNS enrichment (R)
AAGAAUCCCUUCAAGGAGAAAGGUGGCUGUCUGAUAAGCUGAUGGCAUGGAGCCCUGCCCUGAGUGUCUGUCCCUCUUCAGCCAAGCCCAAGUCUCCUAGACCCCCAGGG	0.305
UGGGUGACUGGCUUGGUGGCUUCUGCUAGCCAUCUAAGGCUGGAUAAGGAACUUCCCAGAUGAUUAGAAGUACAAGACUUGCUUUGUUUUGUUUUCUUUGGUUUUUGUGU	0.825
CUGUUGGUACUUAUACAAAGAAAAAUCAGCCCUGCCCUUUAGGACCUGAAAAUGCAACAGAAAGGGAGCGUGGGUACGAGGGCCUGGUUUCUACUGUGUGUAAAUGGGAG	0.612
CUUAGGCACUAUUGUCUUUUGUCUUCCAGAGUAACAUAUCUGGGCCCACCUUUCUUGCACACUGUGAUUAUGUGCUAAGAAAAGGGUGGAGUUGGGAGGACAAUUUCACU	0.427
CACAGGUGCUUAAAGGACACUUUCAGAAGAAGCUGAAGGCCUUGAGGUCUGCCCACCCAGCUGAUCUCGGAGUCCUGGCCCCAGUCCAUGUGUAGCUCUAAGAACAUGAA	0.449
AAAGAUAAUUUAUGGCAAAGUGUUUAAAUUGUUUAUACAUAAAUAAAGUCUCUAAAACUCCUGUGGACACUGGUCUUGUGUGGAAAUGAUUUGAGAUGAGAAAAAGGCAA	1.76
CAAGGAGUUUUGAAAAGAAAUGCAAAGAACAAAACUACAACACUAUUUUUUAAAAAGUUGAGUAUCUGAGUUAAAAUUUCCAAAUCUUUAUUUUACACCACCUUAAAAAU	0.892
UCAGCAUUAUCCUGCCAGACCUCGGGGAGGAUACCUGGGAGACAGAAGCCUCUGCACCUACUGUGCAGAACUCUCCACUUCCCCAACCCUCCCCAGGUGGGCAGGGCGGA	0.232
ACCUUCUGAAGUUCACAUCGUUGGCAUUUCCUUUUUAUGUUAUGCAUACUUUGGCUGAACAAACAUUUAUUGGGCACUUCAGCUCAUUAGCACCAGGCAUGUAUAGACAC	0.542
UUUCCAAGGAGAGCAGCUUUCUCCACAGGAACACAGUAACAAAAGAGGUCCGCCGCCAUCCACACCCAGCCAAGACACCUCAGAGGCCAUAGGGACAACCUCCUUGCUGG	0.313
UGCUUCACUCCUGGCUCUGUUCAGGGAGGCUGCCCAGGAGGAAGACUGGCCAUUAUGCAUCCCCUUUUCUUUCCAGUGCCCAGUAUGCUGUUUUGAGGUGUCAAAUACAA	2.4
ACAAUCUGGACUACCCCAAGAUGGCACCCAAGUGUUUGGCUUCUGGCUACCUAAGGUUAACAUGUCACUAGAGUAUUUUUAUGAGAGACAAACAUUAUAAAAAUCUGAUG	0.442

Block 2 — method: protein-binding microarray; molecule type: double-stranded DNA, one strand shown; medium: in vitro; tested at: 250 nM; notes: 60-bp whole probe; with: salmon DNA 0.4 mg/ml; reference: random background probes; direction: higher = stronger binding; all sequences stand within: GCCTAGCAC … GTCTTGATTCGCTTGACGCTGCTG
Target: Interferon regulatory factor 5, full length, phosphomimetic (IRF5, Homo sapiens, UniProt Q13568-2, residues 1-514, K96S/S451D/S453D/S456D/S462D)
Oligonucleotide	log fluorescence [z-score]
TTAGATTTGAGTTTCGATTAGTGCTAG	9.23
TCATAACTCATTCTCTGACTGTGCTAG	0.464
TTAGGTATTGGTCTCGGTTAGTGCTAG	1.5
TCATTTTCATTGTTTTTCACTGTGCTA	3.91
GACGGAATGCTTTTCCTGACGTGCTAG	0.0361
CGCTCCCTTTATTCCACATTGTGCTAG	0.0116
CCGGGGGGCACAGGGTGAGGGTGCTAG	1.69
GACGGTATCGACTTTCCGGACGTGCTA	2.73
GACGATATCAGGCTGGAGACGTGCTAG	0.156
GACGGTTTCCTTATCCTGAAGTGCTAG	0.745
TTAGAACTGGGGACTGGAGTAGTGCTA	-0.221
TTAGGTATCGGGACTGGGTTTGTGCTA	1.84
GACGGTAACCTTTTCCTGACGTGCTAG	-0.0685
GACGGATCCGGTTTCGGGACGTGCTAG	3.37
CTGTTTCTGTGTCACAGAGGGTGCTAG	4.4
TTAGGACTGGGTTTCGCTTAGTGCTAG	2.92
TCAGGTTTCTATATTTGACTGTGCTAG	2.42
TTAGGTATCGGTAGCGGTTAGTGCTAG	5.97
GACGATATCGGGTTACGAGACGTGCTA	2.03
TCAATTTTTAGTTAGAAACTGTGCTAG	0.81
CTCCATGAACAGGGCTGATGGTGCTAG	-0.336
TTAGGACTGGGGTAACGGTTAGTGCTA	-0.663
GACGATCTCGGTATCGGGACGTGCTAG	0.877
TTAGGACTGGGTCTCGGATAGTGCTAG	-0.265
GACGTTATCAGTATCGAGACGTGCTAG	3.13

Block 3 — method: aptamer microarray, sandwich; molecule type: DNA with 2'F-ANA; medium: in vitro; tested at: 200 nM; with: Cy3 exosite-II aptamer, 400 nM; direction: higher = stronger binding; oligonucleotide: GGTTGGTGTGGTTGG
Target: Prothrombin, mature alpha-thrombin (F2, Homo sapiens, UniProt P00734)
Notes: whole 15-mer aptamer, many near background
Modification	mean fluorescence intensity
2'F-ANA at 2 3 4 5 6 7 8 9 10 12 14 15	53.1 a.u.
2'F-ANA at 3 4 5 8 11 13 15	66.8 a.u.
2'F-ANA at 2 3 5 9 11 13 15	67.9 a.u.
2'F-ANA at 3 4 5 6 9 10 11 12 15	56.1 a.u.
2'F-ANA at 3 4 6 7 10 12 13 14 15	164 a.u.
2'F-ANA at 2 5 9 13 15	51.1 a.u.
2'F-ANA at 1 7 10	52.4 a.u.
2'F-ANA at 2 4 6 9 14 15	109 a.u.
2'F-ANA at 2 6 8 11 12 13 15	467 a.u.
2'F-ANA at 1 4 5 7 9 10 14 15	97.8 a.u.
2'F-ANA at 3 4 5 7	107 a.u.
2'F-ANA at 4 5 6 7 8 9 10 11 12 14 15	48.1 a.u.
2'F-ANA at 1 3 10 11 15	78 a.u.
2'F-ANA at 1 2 3 5 9	83.2 a.u.
2'F-ANA at 2 3 4 6 10 15	215 a.u.
2'F-ANA at 1 3 5 7 13 14	44.7 a.u.
2'F-ANA at 2 4 5 9 14 15	54 a.u.
2'F-ANA at 4 5 6 7 8 10 13	42.2 a.u.
2'F-ANA at 1 3 5 7 9 10 11 12 14	47.1 a.u.
2'F-ANA at 1 2 3 8 10 12 13 14 15	53.3 a.u.
2'F-ANA at 1 3 5 6 10 11 13 14	44.2 a.u.
2'F-ANA at 1 2 3 6 8 9 10 13 14 15	97.6 a.u.
2'F-ANA at 1 2 3 5 6 7 8 9 10 14 15	69.5 a.u.
2'F-ANA at 2 4 6 7 11 13 14 15	77.1 a.u.

Block 4 — method: RNA Bind-n-Seq; molecule type: RNA; medium: in vitro; tested at: 200 nM; notes: whole 134-nt RNA, ends assumed; with: 150 mM LiCl; reference: input library; direction: higher = stronger binding; all molecules: 7-deaza-guanosine replaces G
Target: Ras GTPase-activating protein-binding protein 1, full length (G3BP1, Homo sapiens, UniProt Q13283)
Chain of UniProt Q13283 (whole entry, looked up): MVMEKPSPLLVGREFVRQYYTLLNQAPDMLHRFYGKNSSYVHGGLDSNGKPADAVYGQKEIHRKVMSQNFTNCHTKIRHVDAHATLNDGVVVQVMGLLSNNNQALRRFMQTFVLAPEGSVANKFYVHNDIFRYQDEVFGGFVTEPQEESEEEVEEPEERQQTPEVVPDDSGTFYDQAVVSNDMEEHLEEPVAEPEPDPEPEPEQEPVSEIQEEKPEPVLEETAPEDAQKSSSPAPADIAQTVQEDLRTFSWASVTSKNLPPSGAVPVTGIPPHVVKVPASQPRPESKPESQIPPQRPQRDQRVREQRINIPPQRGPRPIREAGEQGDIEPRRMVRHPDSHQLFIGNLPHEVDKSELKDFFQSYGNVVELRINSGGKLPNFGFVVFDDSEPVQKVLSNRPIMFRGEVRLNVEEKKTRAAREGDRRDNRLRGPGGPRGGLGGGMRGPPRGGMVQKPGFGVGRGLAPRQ
All sequences stand within: GGGAGUUCUACAGUCCGACGAUC … UGGAAUUCUCGGGUGUCAAGG
Oligonucleotide	log2 enrichment
CCUCAAGUCCUGUGCUACACAUCGUAUGUACCGAAUCGGGUGGUGGGGUGGGGAAAGUAUUAUGUUACGCCGUUCGGAUCUGCACUUCCA	-0.165
AAGUCCUGUGCUACACAUCGUAUGUACCGAAUCGGAAAAGGGAAAAGGGAAAAGGGAAAGUAUUAUGUUACGCCGUUCGGAUCUGCACUU	-0.39
UCAAGUCCUGUGCUACACAUCGUAUGUACCGAAUCGGCCGGGGCCGGGGCCGGGGAAAGUAUUAUGUUACGCCGUUCGGAUCUGCACUUC	-0.428
ACCAUGCAGGUGGGCAUCUUUGGGAAGUGGGGCAAGCGGGGGAUAGGGAGGGGGGUAACACUUUGGGAACAGGUGGUCCCAGGUCGUUUC	0.309
UCAAGUCCUGUGCUACACAUCGUAUGUACCGAAUCGGGAAAGGGAAAGGGAAAGGAAAGUAUUAUGUUACGCCGUUCGGAUCUGCACUUC	-0.698
UCCUCAAGUCCUGUGCUACACAUCGUAUGUACCGAAUCGGAGGUUUGGAGGAAAGUAUUAUGUUACGCCGUUCGGAUCUGCACUUCCAGC	-0.848
UGCUUGUUCUGGAGUGAUCUUCUGACUGGAAAAGAACUAUGUCAUGGAUCAAGGAAGGAGAGCUGUCACUUUGGGAGCGGUUCUGUGCCA	1.1
UCAAGUCCUGUGCUACACAUCGUAUGUACCGAAUCGGCCCGGGCCCGGCCCGGGGAAAGUAUUAUGUUACGCCGUUCGGAUCUGCACUUC	-0.213
AGUCCUGUGCUACACAUCGUAUGUACCGAAUCGGCCCCCGGCCCCCGGGCCCCCGGGAAAGUAUUAUGUUACGCCGUUCGGAUCUGCACU	-0.516
GUCCUGUGCUACACAUCGUAUGUACCGAAUCGGGAAAAAAAGGGAAAAAGGGAAAGGGAAAGUAUUAUGUUACGCCGUUCGGAUCUGCAC	-0.171
UCCUCAAGUCCUGUGCUACACAUCGUAUGUACCGAAUCGGGCGGCGGCGGGGAAAGUAUUAUGUUACGCCGUUCGGAUCUGCACUUCCAG	1.11
